{"data": "Assay results from different studies", "note": "Parts stem from different laboratories: compare values within a part only. Positions count from the first letter of the parent shown."}
{"data": "Sample 1", "target": "Histone acetyltransferase KAT6A, winged helix 2, GST fusion (KAT6A, Homo sapiens, UniProt Q92794, residues 85-181)", "method": "protein binding microarray", "molecule type": "double-stranded DNA, one strand shown", "matrix": "in vitro", "tested at": "not given", "notes": "8-mer, flanks averaged, mean of 2 arrays, mostly near background", "baseline": "not given", "direction": "higher = stronger binding", "Residues (chain)": "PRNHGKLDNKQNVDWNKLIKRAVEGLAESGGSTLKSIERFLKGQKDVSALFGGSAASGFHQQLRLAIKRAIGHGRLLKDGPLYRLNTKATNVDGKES"}
{"Oligonucleotide": "ACGCGGAT", "E-score": 0.165}
{"Oligonucleotide": "CCTCCATC", "E-score": 0.0111}
{"Oligonucleotide": "GTGGGCAA", "E-score": -0.117}
{"Oligonucleotide": "CCCAACGC", "E-score": 0.146}
{"Oligonucleotide": "ATGACCCG", "E-score": -0.111}
{"Oligonucleotide": "AGTAAGTA", "E-score": -0.151}
{"Oligonucleotide": "CGCTACCA", "E-score": -0.101}
{"Oligonucleotide": "GGCAGAAA", "E-score": 0.315}
{"Oligonucleotide": "AGGTGGAC", "E-score": -0.0439}
{"Oligonucleotide": "ACTTAGTA", "E-score": -0.0184}
{"Oligonucleotide": "ACGTGGGA", "E-score": -0.144}
{"Oligonucleotide": "ACGGGTTA", "E-score": -0.193}
{"Oligonucleotide": "CAACCAAC", "E-score": -0.0795}
{"Oligonucleotide": "AATCGTAT", "E-score": -0.0517}
{"Oligonucleotide": "ACCTTATA", "E-score": 0.0226}
{"Oligonucleotide": "AGAGCAGC", "E-score": 0.0431}
{"Oligonucleotide": "CTTCCGAC", "E-score": 0.114}
{"Oligonucleotide": "AGTTCATG", "E-score": 0.108}
{"Oligonucleotide": "ATCCACGA", "E-score": 0.0642}
{"Oligonucleotide": "ACAACACA", "E-score": -0.0186}
{"Oligonucleotide": "AGACTTTC", "E-score": -0.306}
{"data": "Sample 2", "target": "CCNF, cyclin fold, Cln2 fusion (human)", "method": "yeast growth competition, sequencing", "matrix": "yeast", "notes": "strong parent motif", "baseline": "not given", "direction": "higher = stronger binding", "parent": "E2F7 docking peptide (human); SSAQRRLEIPSGG"}
{"Change": "G13A", "normalised enrichment score": 3.4}
{"Change": "S1A", "normalised enrichment score": 3.23}
{"Change": "P10A", "normalised enrichment score": 1.48}
{"Change": "R5K I9L", "normalised enrichment score": 0.729}
{"Change": "Q4A", "normalised enrichment score": 3.06}
{"Change": "R5A", "normalised enrichment score": 0.323}
{"Change": "G12A", "normalised enrichment score": 2.78}
{"Change": "I9L", "normalised enrichment score": 4.03}
{"data": "Sample 3", "target": "RNA binding protein fox-1 homolog 2, RRM domain, GST-SBP tag (RBFOX2, Homo sapiens, UniProt O43251-10, residues 100-194)", "method": "RNA Bind-n-Seq", "molecule type": "RNA", "matrix": "in vitro", "tested at": "365 nM", "notes": "natural RNA segment, single round, ends assumed", "baseline": "no-protein control", "direction": "higher = stronger binding", "Residues (chain)": "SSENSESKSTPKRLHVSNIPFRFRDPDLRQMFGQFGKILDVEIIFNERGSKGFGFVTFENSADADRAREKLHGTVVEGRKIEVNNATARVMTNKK"}
{"Oligonucleotide": "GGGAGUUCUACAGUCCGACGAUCGAGGGUACUGUCUCUAAUGUAUAUUUCUAGUGUUUACAGACACUAAGUGUGUAUAUGUAGUAACUAUUUACAGACCACGCAUCCUUAUACUGUGACUUCACCUAGAUCUUUGGAAUUCUCGGGUGCCAA", "RBNS enrichment (R)": 0.308}
{"Oligonucleotide": "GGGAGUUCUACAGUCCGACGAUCUUGCUCUCCCUUAGUGUUCCCUGGCCUCCCUGCCAUCAGGUUGCUGGGAGUGGAGAUGGAGGGAUUAUUGAGCAGAAAAUGAGUUGGAUGGAGAUAAACAGCUCCCAUCCUGGAAUUCUCGGGUGCCAA", "RBNS enrichment (R)": 0.347}
{"Oligonucleotide": "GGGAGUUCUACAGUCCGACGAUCAGAUAACAUACCACAACACAAUGGAUAAUGUAUUUUAGAUAUAUUCUCUAAUAAAAUUGAGAACUCUAUUCUGGGUGCCUGAUUGUCUGCGCCACAGGGACAGAAAUGGGUGGAAUUCUCGGGUGCCAA", "RBNS enrichment (R)": 0.873}
{"Oligonucleotide": "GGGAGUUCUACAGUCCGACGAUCUAGUGGUGAGGGCCCUCUGUUGCAGGGGCAUGGGGAAAUGCAUAUAUUAAUCAGGGGCUGGAGGAGUAUACAUGAUUCUUGUGUUCAUGUUGUCAUUUGAAACUCUUCACUGGAAUUCUCGGGUGCCAA", "RBNS enrichment (R)": 0.976}
{"Oligonucleotide": "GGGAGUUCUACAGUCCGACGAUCCUACUGUAGGAUCUUACAUUCUGUUAGUAGUACAAAGGGAAGAGUUUUCCUAAUCCUUCCUUACCAUAUCCUACACAGCAAAAUCCUUUUAGACAUAUAUUGCCAAGCCAUGGAAUUCUCGGGUGCCAA", "RBNS enrichment (R)": 0.283}
{"Oligonucleotide": "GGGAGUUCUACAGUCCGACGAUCAAAAAAAAAAAAAAAAAAAAAAAAAAAAGGAGAAAGAAAAAAAAAGAAAGAAAAAAUAGCAGCUUUCAGUGCUUCACAGUGAAGGGAAAAAAGCCUAGACAAACAUUUUGUGGAAUUCUCGGGUGCCAA", "RBNS enrichment (R)": 5.12}
{"Oligonucleotide": "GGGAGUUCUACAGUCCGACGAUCUGUGCGGGGACUGGCCGAGGCCCCUGCACCCUGCGCAUCAGGACUGCUUCAUCGUCUUGGCUGAGAAAGGGAAAAGACACACAAGUCGCGUGGGUUGGAGAAGCCAGAGCUGGAAUUCUCGGGUGCCAA", "RBNS enrichment (R)": 0.895}
{"Oligonucleotide": "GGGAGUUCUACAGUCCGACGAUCAAAGCCUAAAGCCCUUUAGCGUUGUGAACCUCAGUAGUAGCUGAAAGAGAAGCUGCCACAGGUUGUACUUGCUCUGUGAGAUGUUGUAGACAUUCCGUAAGAGAAUCCAGUGGAAUUCUCGGGUGCCAA", "RBNS enrichment (R)": 0.345}
{"data": "Sample 4", "target": "Sal-like protein 4, full length isoform A (SALL4, Homo sapiens, UniProt Q9UJQ4, residues 1-1053)", "method": "universal PBM", "molecule type": "double-stranded DNA, one strand shown", "matrix": "in vitro", "tested at": "600 nM", "notes": "8-mer, flanks averaged, mean of replicates", "direction": "higher = stronger binding", "sequence of UniProt Q9UJQ4 (whole entry, looked up)": "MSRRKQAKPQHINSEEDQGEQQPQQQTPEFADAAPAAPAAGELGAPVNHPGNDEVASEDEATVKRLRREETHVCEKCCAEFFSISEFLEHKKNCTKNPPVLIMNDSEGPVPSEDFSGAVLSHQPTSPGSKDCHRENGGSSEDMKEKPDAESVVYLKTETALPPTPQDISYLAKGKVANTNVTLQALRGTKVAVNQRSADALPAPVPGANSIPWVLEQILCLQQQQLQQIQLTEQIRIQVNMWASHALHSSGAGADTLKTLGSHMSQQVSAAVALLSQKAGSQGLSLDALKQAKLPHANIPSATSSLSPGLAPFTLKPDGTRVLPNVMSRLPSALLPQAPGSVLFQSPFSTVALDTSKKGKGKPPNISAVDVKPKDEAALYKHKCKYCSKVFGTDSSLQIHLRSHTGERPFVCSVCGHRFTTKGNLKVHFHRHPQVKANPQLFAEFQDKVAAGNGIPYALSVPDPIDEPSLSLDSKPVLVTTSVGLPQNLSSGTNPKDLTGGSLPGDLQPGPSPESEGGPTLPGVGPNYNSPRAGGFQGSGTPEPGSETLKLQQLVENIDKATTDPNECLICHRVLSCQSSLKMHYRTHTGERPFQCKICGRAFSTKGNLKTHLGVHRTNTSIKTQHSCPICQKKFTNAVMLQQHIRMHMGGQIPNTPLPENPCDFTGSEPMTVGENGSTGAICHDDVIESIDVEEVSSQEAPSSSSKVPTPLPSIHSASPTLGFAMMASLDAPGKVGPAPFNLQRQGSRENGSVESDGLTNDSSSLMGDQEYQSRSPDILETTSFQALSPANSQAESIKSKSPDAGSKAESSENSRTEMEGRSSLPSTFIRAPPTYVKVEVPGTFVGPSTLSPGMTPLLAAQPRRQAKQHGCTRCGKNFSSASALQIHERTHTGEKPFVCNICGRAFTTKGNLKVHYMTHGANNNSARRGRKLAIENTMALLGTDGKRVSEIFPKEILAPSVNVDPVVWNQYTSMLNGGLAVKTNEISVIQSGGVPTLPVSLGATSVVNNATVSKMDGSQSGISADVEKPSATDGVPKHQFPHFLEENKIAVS"}
{"Oligonucleotide": "CAGCCCTA", "E-score": -0.205}
{"Oligonucleotide": "CACGTCTC", "E-score": -0.196}
{"Oligonucleotide": "ATAAAATC", "E-score": 0.297}
{"Oligonucleotide": "ATCGTAAT", "E-score": 0.254}
{"Oligonucleotide": "AGACGATA", "E-score": 0.187}
{"Oligonucleotide": "CTTACGAA", "E-score": 0.138}
{"Oligonucleotide": "CAGCTGTC", "E-score": -0.0812}
{"Oligonucleotide": "GGGGAACA", "E-score": -0.218}
{"Oligonucleotide": "AACAGCTG", "E-score": 0.00907}
{"Oligonucleotide": "ACATCACC", "E-score": -0.0326}
{"Oligonucleotide": "TGATTGCA", "E-score": 0.131}
{"Oligonucleotide": "AAGGTTGA", "E-score": 0.114}
{"Oligonucleotide": "TAAGCGGA", "E-score": -0.0618}
{"Oligonucleotide": "CAAGTTCA", "E-score": -0.044}
{"Oligonucleotide": "CTTTGAAC", "E-score": -0.0169}
{"Oligonucleotide": "ACCCTAGG", "E-score": -0.117}
{"Oligonucleotide": "CACCTCTC", "E-score": -0.0834}
{"Oligonucleotide": "AGCTGCGG", "E-score": -0.393}
{"Oligonucleotide": "AGTCACGG", "E-score": -0.0646}
{"Oligonucleotide": "CGTGGGAC", "E-score": -0.293}
{"Oligonucleotide": "GAGTACAA", "E-score": 0.136}
{"data": "Sample 5", "target": "Prothrombin, mature alpha-thrombin (F2, Homo sapiens, UniProt P00734)", "method": "aptamer microarray, sandwich", "molecule type": "DNA with 2'F-ANA", "matrix": "in vitro", "tested at": "200 nM", "notes": "whole 15-mer aptamer, many near background", "added": "Cy3 exosite-II aptamer, 400 nM", "direction": "higher = stronger binding", "oligonucleotide": "GGTTGGTGTGGTTGG"}
{"Modification": "2'F-ANA at 1 2 3 6 7 8 10 11 12 14", "mean fluorescence intensity": "55.4 a.u."}
{"Modification": "2'F-ANA at 2 3 6 7 8 9 12 13 14 15", "mean fluorescence intensity": "340 a.u."}
{"Modification": "2'F-ANA at 1 3 4 6 8 11 12 15", "mean fluorescence intensity": "319 a.u."}
{"Modification": "2'F-ANA at 1 2 4 5 6 7 8 9 10 14 15", "mean fluorescence intensity": "143 a.u."}
{"Modification": "2'F-ANA at 1 10 15", "mean fluorescence intensity": "59.5 a.u."}
{"Modification": "2'F-ANA at 1 2 6 9 14 15", "mean fluorescence intensity": "54.7 a.u."}
{"Modification": "2'F-ANA at 1 3 5 7 8 10 13 14", "mean fluorescence intensity": "46.6 a.u."}
{"Modification": "2'F-ANA at 1 2 3 4", "mean fluorescence intensity": "214 a.u."}
{"Modification": "2'F-ANA at 1 4 7 9 14", "mean fluorescence intensity": "49 a.u."}
{"Modification": "2'F-ANA at 4 5 6 7 9 13 15", "mean fluorescence intensity": "49.4 a.u."}
{"Modification": "2'F-ANA at 1 8 9 14 15", "mean fluorescence intensity": "55.8 a.u."}
{"Modification": "2'F-ANA at 3 5 7 8 9 14", "mean fluorescence intensity": "63.7 a.u."}
{"Modification": "2'F-ANA at 1 3 4 10 12 14 15", "mean fluorescence intensity": "50.5 a.u."}
{"Modification": "2'F-ANA at 1 2 3 5 7 10 11 12 13 15", "mean fluorescence intensity": "85.1 a.u."}
{"Modification": "2'F-ANA at 2 3 5 7 12 14", "mean fluorescence intensity": "56.1 a.u."}
{"Modification": "2'F-ANA at 2 5 6 12 13 14 15", "mean fluorescence intensity": "68.9 a.u."}
{"Modification": "2'F-ANA at 7 9 11 14 15", "mean fluorescence intensity": "174 a.u."}
{"Modification": "2'F-ANA at 2 3 5 8 10 12 14", "mean fluorescence intensity": "50.9 a.u."}
{"Modification": "2'F-ANA at 1 2 3 4 6 9 10 13", "mean fluorescence intensity": "55.4 a.u."}
{"Modification": "2'F-ANA at 1 3 8 11 14", "mean fluorescence intensity": "89.2 a.u."}
{"note": "A few entries again (sample 4):"}
{"Oligonucleotide": "CAGCTGTC", "E-score": -0.0812}
{"Oligonucleotide": "AGTCACGG", "E-score": -0.0646}
{"Oligonucleotide": "TGATTGCA", "E-score": 0.131}
{"Oligonucleotide": "TAAGCGGA", "E-score": -0.0618}
{"Oligonucleotide": "AGCTGCGG", "E-score": -0.393}
{"Oligonucleotide": "AACAGCTG", "E-score": 0.00907}
{"Oligonucleotide": "ACATCACC", "E-score": -0.0326}
{"Oligonucleotide": "CACCTCTC", "E-score": -0.0834}
{"Oligonucleotide": "CTTTGAAC", "E-score": -0.0169}
{"Oligonucleotide": "CAAGTTCA", "E-score": -0.044}
{"Oligonucleotide": "CACGTCTC", "E-score": -0.196}
{"Oligonucleotide": "ATCGTAAT", "E-score": 0.254}
{"Oligonucleotide": "GGGGAACA", "E-score": -0.218}
